Assay results pooled from the literature.
Lines come from different studies, so protocols differ. Several values in a cell are separate wells, animals, samples, runs or records. ± marks the error that the study gave.
Chain of UniProt P21802 (whole entry, looked up): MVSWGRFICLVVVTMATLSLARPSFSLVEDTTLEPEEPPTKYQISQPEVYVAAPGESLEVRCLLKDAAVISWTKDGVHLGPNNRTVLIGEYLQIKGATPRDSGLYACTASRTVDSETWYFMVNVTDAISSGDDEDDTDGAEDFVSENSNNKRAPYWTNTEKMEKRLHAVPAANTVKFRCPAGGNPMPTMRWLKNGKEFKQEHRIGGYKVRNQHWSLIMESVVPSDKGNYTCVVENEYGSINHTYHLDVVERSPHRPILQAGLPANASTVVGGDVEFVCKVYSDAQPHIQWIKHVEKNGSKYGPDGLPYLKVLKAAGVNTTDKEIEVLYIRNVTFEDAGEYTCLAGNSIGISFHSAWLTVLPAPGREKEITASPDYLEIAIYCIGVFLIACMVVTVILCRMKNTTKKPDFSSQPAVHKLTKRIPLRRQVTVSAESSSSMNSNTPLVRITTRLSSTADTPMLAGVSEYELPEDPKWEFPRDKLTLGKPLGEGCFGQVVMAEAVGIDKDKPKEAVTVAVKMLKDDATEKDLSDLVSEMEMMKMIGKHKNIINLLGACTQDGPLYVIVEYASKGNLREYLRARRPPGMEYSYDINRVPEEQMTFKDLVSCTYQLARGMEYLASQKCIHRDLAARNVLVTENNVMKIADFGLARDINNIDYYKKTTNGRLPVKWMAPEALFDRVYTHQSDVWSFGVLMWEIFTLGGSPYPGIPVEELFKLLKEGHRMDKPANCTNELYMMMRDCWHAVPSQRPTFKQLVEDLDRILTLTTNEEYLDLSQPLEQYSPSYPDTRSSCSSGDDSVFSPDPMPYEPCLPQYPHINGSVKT
Chain of UniProt P63085 (whole entry, looked up): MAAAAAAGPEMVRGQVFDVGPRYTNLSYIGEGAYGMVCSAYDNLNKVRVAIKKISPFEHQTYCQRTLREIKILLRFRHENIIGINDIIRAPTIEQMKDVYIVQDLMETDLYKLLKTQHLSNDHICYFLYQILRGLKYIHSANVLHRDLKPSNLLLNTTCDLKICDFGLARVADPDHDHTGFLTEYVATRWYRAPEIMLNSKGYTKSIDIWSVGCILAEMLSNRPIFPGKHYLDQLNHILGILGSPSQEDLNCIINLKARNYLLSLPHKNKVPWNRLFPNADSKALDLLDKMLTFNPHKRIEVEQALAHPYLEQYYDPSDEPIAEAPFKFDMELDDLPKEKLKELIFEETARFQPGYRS
Chain of UniProt P29320 (whole entry, looked up): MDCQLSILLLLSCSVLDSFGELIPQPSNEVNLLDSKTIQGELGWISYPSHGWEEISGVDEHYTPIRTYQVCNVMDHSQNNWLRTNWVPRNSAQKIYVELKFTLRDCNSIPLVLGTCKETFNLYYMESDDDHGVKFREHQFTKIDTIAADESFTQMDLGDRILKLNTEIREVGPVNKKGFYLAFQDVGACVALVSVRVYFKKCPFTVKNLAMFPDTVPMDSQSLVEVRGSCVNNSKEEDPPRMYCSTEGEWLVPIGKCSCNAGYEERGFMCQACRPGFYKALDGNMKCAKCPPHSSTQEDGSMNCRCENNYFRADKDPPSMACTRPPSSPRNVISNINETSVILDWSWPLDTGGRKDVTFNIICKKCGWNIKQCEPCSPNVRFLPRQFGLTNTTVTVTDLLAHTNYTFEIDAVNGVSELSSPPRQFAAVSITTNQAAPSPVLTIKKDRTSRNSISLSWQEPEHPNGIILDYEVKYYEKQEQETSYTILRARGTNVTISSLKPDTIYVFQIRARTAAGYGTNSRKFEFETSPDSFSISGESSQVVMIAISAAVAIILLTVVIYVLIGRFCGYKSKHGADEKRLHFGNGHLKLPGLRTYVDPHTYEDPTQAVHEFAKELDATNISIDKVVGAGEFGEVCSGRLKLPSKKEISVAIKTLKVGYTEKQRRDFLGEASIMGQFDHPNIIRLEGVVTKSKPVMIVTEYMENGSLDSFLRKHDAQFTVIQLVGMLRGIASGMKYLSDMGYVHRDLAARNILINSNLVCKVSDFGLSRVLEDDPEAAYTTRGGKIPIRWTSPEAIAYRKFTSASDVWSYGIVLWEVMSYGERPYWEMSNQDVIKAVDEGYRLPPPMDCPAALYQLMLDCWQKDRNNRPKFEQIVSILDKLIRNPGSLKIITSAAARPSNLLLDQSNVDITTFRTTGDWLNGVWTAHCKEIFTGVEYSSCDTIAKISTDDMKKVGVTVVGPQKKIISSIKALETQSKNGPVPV

| Structure (SMILES) | target or system | test | system | setting | scale | measurement | result |
| --- | --- | --- | --- | --- | --- | --- | --- |
| CCCCCCCCCCCCCCCC(=O)N[C@@H](CCC(=O)NCCOCCOCCC(=O)NCCOCCOCCC(=O)NCCCC[C@H](NC(=O)[C@H](CC(=O)O)NC(=O)[C@H](CC(C)C)NC(=O)[C@H](Cc1ccc(O)cc1)NC(=O)[C@H](CCCCN)NC(=O)[C@H](CO)NC(=O)[C@H](Cc1ccc(O)cc1)NC(=O)[C@H](CC(=O)O)NC(=O)[C@H](CO)NC(=O)[C@@H](NC(=O)[C@H](Cc1ccccc1)NC(=O)[C@@H](NC(=O)CNC(=O)[C@H](CCC(N)=O)NC(=O)[C@@H](CO)NC(=O)[C@@H](N)Cc1c[nH]cn1)[C@@H](C)O)[C@@H](C)O)C(=O)N[C@@H](CCCNC(=N)N)C(=O)N[C@@H](CCCNC(=N)N)C(=O)N[C@@H](C)C(=O)N[C@@H](CCC(N)=O)C(=O)N[C@@H](CC(=O)O)C(=O)N[C@@H](Cc1ccccc1)C(=O)N[C@H](C(=O)N[C@@H](CCC(N)=O)C(=O)N[C@@H](Cc1c[nH]c2ccccc12)C(=O)N[C@@H](CC(C)C)C(=O)N[C@@H](CC(C)C)C(=O)N[C@@H](CC(N)=O)C(=O)N[C@H](C(=O)NCC(=O)NCC(=O)N1CCC[C@H]1C(=O)N[C@@H](CO)C(=O)N[C@@H](CO)C(=O)NCC(=O)N[C@@H](C)C(=O)N1CCC[C@H]1C(=O)N1CCC[C@H]1C(=O)N1CCC[C@H]1C(=O)N[C@@H](CO)C(N)=O)[C@@H](C)O)C(C)C)C(=O)O |  |  | rhesus monkey, female | subcutaneous, 20 µg/kg once daily, 28 days |  | total cholesterol | 3.02 ± 0.45 mmol/L |
| Cc1ccc(OCC(=O)N(Cc2cccs2)c2ccn[nH]2)cc1 |  | in vivo micronucleus | Crl:CD-1(ICR) mice, female, bone marrow polychromatic erythrocytes | oral, 1500 mg/kg/day, 3 days |  | micronucleated PCEs | 0.03 ± 0.03% |
| CC(=O)N[C@H](C(=O)N[C@@H](CCCC(=O)OC(C)(C)C)C(=O)N[C@@H](CCC1CCCCC1)C(=O)N[C@@H](CC(=O)O)C(=O)COC(=O)c1c(C)cccc1C)C(C)(C)C |  |  | C57BL/6N mouse, female, whole blood | intraperitoneal, dose not given, 0.5 h |  | blood concentration | 772 µM and 656 µM |
| CC(C)(C)C(=O)OCOP(=O)(OCOC(=O)C(C)(C)C)C1CCCN(O)C1=O (stereo not shown) | K562 |  |  |  |  | TGI | > 100 µM |
| O=C1NC(=O)c2c1c1cc(F)c[n+]3c1c1c2c2cc(O)ccc2[n]1[Ru-4]312([N]=C=S)[S+]3CC[S+]1CC[S+]2CC3 (stereo not shown) | Mapk1 (Mus musculus, UniProt P63085) | enzyme activity |  | 100 nM, mouse enzyme, with: 10 µM ATP | relative to: untreated | remaining activity | 5% |
| N=C(N)NCCC[C@@H](NC(=O)[C@H](N)Cc1c[nH]c2ccccc12)C(=O)N[C@H](CCCCN)C(=O)N[C@H](Cc1c[nH]c2ccccc12)C(=O)N[C@H](CCCNC(=N)N)C(=O)N[C@H](CCCCN)C(=O)N[C@H](Cc1c[nH]c2ccccc12)C(=O)N[C@H](CCCNC(=N)N)C(=O)N[C@H](CCCCN)C(=O)N[C@H](Cc1c[nH]c2ccccc12)C(=O)N[C@H](CCCNC(=N)N)C(=O)N[C@H](CCCCN)C(N)=O |  |  | mouse, liver | intravenous, 40 mg/kg single dose, 7 days |  | organ index | 4.84 |
| CCCCCCCCCCCCCC(=O)N[C@H](CCN)C(=O)N[C@@H]1C(=O)N[C@@H](CCN)C(=O)N[C@@H](CC(C)C)C(=O)N[C@@H](CCN)C(=O)N[C@H](Cc2ccccc2)C(=O)N[C@@H](CC(C)C)C(=O)N[C@@H](CCN)C(=O)N[C@H](CCN)C(=O)N[C@@H](C(C)C)C(=O)N[C@@H](CC(=O)O)C(=O)O[C@@H]1C |  |  | rat, plasma | intravenous, 5 mg/kg |  | Vd | 0.432 L/kg |
| CC(C)[C@@H]1NC(=O)CNC(=O)[C@H](CC(N)=O)NC(=O)[C@H](CCCNC(=N)N)NC(=O)[C@H](Cc2ccc(O)cc2)NC(=O)[C@H](C(C)C)NC(=O)[C@@H](NC(=O)[C@@H](NC(=O)[C@H](CC(N)=O)NC(=O)[C@H](Cc2c[nH]c3ccccc23)NC(=O)[C@H](C)NC(=O)[C@H](Cc2ccccc2)NC(=O)CNC(=O)[C@H](CCCCN)NC(=O)[C@H](Cc2ccccc2)NC(=O)[C@H](Cc2ccccc2)NC(=O)[C@H](CCCCN)NC(=O)OCC2c3ccccc3-c3ccccc32)C(C)C)CSSC[C@@H](C(=O)N[C@@H](Cc2c[nH]cn2)C(=O)N[C@@H](CCCNC(=N)N)C(=O)N[C@@H](CCCNC(=N)N)C(=O)N[C@@H](C)C(=O)N[C@@H](CC(N)=O)C(N)=O)NC(=O)[C@H](C(C)C)NC(=O)[C@H](CCCNC(=N)N)NC1=O |  | HPLC | mouse liver homogenate 50 mg/mL | 6.00 h |  | peptide remaining | 35.1% and 38.1% and 41.1% |
| CC(=O)NCCCC[C@@H]1NC(=O)[C@H](Cc2c[nH]c3c(C)cccc23)NC(=O)[C@H]([C@@H](C)O)NC(=O)[C@H](CC(N)=O)NC(=O)[C@@H](NC(C)=O)C(C)(C)SSC(C)(C)[C@@H](C(=O)N[C@@H](Cc2ccc(OCCN)cc2)C(=O)N[C@@H](Cc2ccc3ccccc3c2)C(=O)NC2(C(=O)N[C@@H](CCC(=O)O)C(=O)N[C@@H](CC(N)=O)C(=O)N[C@@H](Cc3cccnc3)C(=O)N(C)CC(N)=O)CCOCC2)NC1=O |  |  | cynomolgus monkey, sacroiliac ligament | intravenous, 1 mg/kg |  | tissue to plasma ratio | 96% |
| CC(C)[C@H]1NC(=O)C[C@H]2/C=C/CCSSC[C@@H](NC1=O)C(=O)N[C@H](Cc1cccc3ccccc13)C(=O)NCC(=O)O2 | EPHA3 (Homo sapiens, UniProt P29320) | enzyme activity, inhibitor |  | 10 µM |  | inhibition | -1.2% |
| CC[C@H](C)[C@H](NC(=O)[C@H](CCCCN)NC(=O)CNC(=O)[C@H](CC(C)C)NC(=O)[C@H](Cc1ccccc1)NC(=O)[C@H](CCCCN)NC(=O)[C@H](CO)NC(=O)[C@H](Cc1ccccc1)NC(=O)[C@H](Cc1c[nH]c2ccccc12)NC(=O)[C@H](CCC(N)=O)NC(=O)[C@@H](NC(=O)[C@H](Cc1ccccc1)NC(=O)CCCCCNC(=O)CN1CCN(CC(=O)O)CCN(CC(=O)O)CCN(CC(=O)O)CC1)C(C)C)C(=O)N[C@@H](CCC(=O)O)C(=O)N1CCC[C@H]1C(=O)N[C@@H](CC(=O)O)C(=O)N[C@H](C(=O)N[C@@H](CO)C(=O)N[C@@H](CCC(N)=O)C(=O)N[C@H](C(=O)N[C@@H](CCC(N)=O)C(=O)N[C@@H](CC(=O)O)C(=O)N1CCC[C@H]1C(=O)N[C@@H](CC(N)=O)C(=O)N[C@@H](CC(=O)O)C(=O)N[C@@H](CCC(N)=O)C(=O)N[C@@H](Cc1ccc(O)cc1)C(=O)N[C@@H](CCC(=O)O)C(=O)N1CCC[C@H]1C(=O)N[C@@H](Cc1ccccc1)C(=O)O)C(C)C)C(C)C [copper-64 labelled] |  |  | GZMB-/- mouse bearing CT26 tumour, lung | dose not given, 2 h, checkpoint inhibitor-treated |  | tissue uptake | 2.86 ± 0.4 %ID/g |
| CN(C)[C@H]1C[C@@]23CC[C@@]4(O2)C(=CC[C@]2(C)[C@@H](c5ccc6ccncc6c5)CC[C@H]24)C=C3[C@@H](O)[C@@H]1O | MTOR (Homo sapiens, UniProt P42345) |  |  | 0.1 µM |  | inhibition | -2.7% |
| COc1ccccc1-c1n[nH]c2nc(NC3CCN(C(=O)Cc4ccc(F)cc4F)CC3)ncc12 |  | bead binding, competition bead pull-down, refers to: LINJ.36.3100 | Leishmania donovani axenic amastigote extract | 10 µM | relative to: vehicle | relative abundance | 0.93 |
| CC[C@H](C)[C@@H]1NC(=O)[C@@H]2CCCN2C(=O)[C@H](CCSC)NC(=O)[C@H]([C@@H](C)O)NC(=O)[C@H](CCSC)NC(=O)[C@H](CC(=O)O)NC(=O)CNC(=O)[C@H](Cc2c[nH]cn2)NC(=O)[C@H](Cc2ccc(O)cc2)NC(=O)[C@@H](NC(=O)[C@H](Cc2c[nH]cn2)NC(=O)[C@@H](NC(=O)[C@H](CCC(N)=O)NC(=O)[C@@H](N)CO)C(C)C)CSSC[C@@H](C(=O)O)NC1=O |  |  | mouse, serum | 3 h |  | remaining compound | ~0.58% |
| CC(C)C[C@H](NC(=O)[C@H](CC(C)C)NC(=O)[C@H](CCCCN)NC(=O)[C@H](Cc1ccccc1)NC(=O)[C@@H](NC(=O)[C@H](CCCNC(=N)N)NC(=O)[C@@H](N)CCCCN)C(C)C)C(=O)N[C@@H](CCCCN)C(=O)N[C@@H](CCCNC(=N)N)C(=O)N[C@@H](Cc1ccc(O)cc1)C(=O)N[C@@H](Cc1c[nH]c2ccccc12)C(=O)N[C@@H](CCCNC(=N)N)C(=O)N[C@@H](CCC(N)=O)C(=O)N[C@@H](CC(C)C)C(=O)N[C@@H](CCCCN)C(=O)N[C@@H](CCCCN)C(=O)N1CCC[C@H]1C(=O)N[C@H](C(=O)N[C@@H](CCCNC(=N)N)C(=O)NCCOCCOCC(=O)O)C(C)C |  |  | mouse erythrocytes | up to 128 µM |  | haemolysis | < 5% |
| C=Cc1c(C)c2cc3nc(c(CC(=O)[O-])c4[n-]c(cc5nc(cc1[n-]2)C(C)=C5CC)c(C)c4C(=O)[O-])C(CCC(=O)[O-])C3C.[Cu+2].[Na+].[Na+].[Na+] (stereo not shown) |  |  | Wistar rat, male | oral, 500 mg/kg daily, 28 days |  | serum AST | 107 ± 12 U/L |
| CS(C)(=O)=Nc1ccc(-c2ccc(-c3nc4cc(O[C@@H]5CO[C@H]6[C@@H]5OC[C@H]6O)[nH]c4cc3F)cc2)cc1 | FGFR2 (Homo sapiens, UniProt P21802) | enzyme activity, inhibitor |  | 10 µM |  | inhibition | 1% |
| O=C1NC2(CC2)COc2ncc(F)cc2[C@H]2COCCN2c2ccn3ncc1c3n2 |  |  | Sprague-Dawley rats, male, blood | oral, 2.5 mg/kg/day, end of recovery, 4-week subacute toxicity |  | haematocrit | 43.8 ± 1.1% |
| CCCCCCCCCCCCCCCC(=O)N[C@@H](CCC(=O)NCCCC[C@H](NC(=O)[C@H](CC(=O)O)NC(=O)[C@H](CO)NC(=O)[C@@H](NC(=O)[C@H](Cc1ccccc1)NC(=O)[C@@H](NC(=O)CNC(=O)[C@H](CCC(N)=O)NC(=O)[C@H](C)NC(=O)[C@@H](Cc1ccc(O)cc1)NC(C)=O)[C@@H](C)O)[C@@H](C)O)C(=O)N[C@@H](CO)C(=O)N[C@@H](CCCCN)C(=O)N[C@@H](Cc1ccc(O)cc1)C(=O)N[C@@H](CC(C)C)C(=O)N[C@@H](CC(=O)O)C(=O)N[C@@H](CCC(=O)O)C(=O)N[C@@H](CCCNC(=N)N)C(=O)N[C@@H](C)C(=O)N[C@@H](C)C(=O)N[C@@H](CCC(N)=O)C(=O)N[C@@H](CC(=O)O)C(=O)N[C@@H](Cc1ccccc1)C(=O)N[C@H](C(=O)N[C@@H](CCC(N)=O)C(=O)N[C@@H](Cc1c[nH]c2ccccc12)C(=O)N[C@@H](CC(C)C)C(=O)N[C@@H](CC(C)C)C(=O)N[C@@H](CCC(=O)O)C(=O)NCC(=O)NCC(=O)N1CCC[C@H]1C(=O)N[C@@H](CO)C(=O)N[C@@H](CO)C(=O)NCC(=O)N[C@@H](C)C(=O)N1CCC[C@H]1C(=O)N1CCC[C@H]1C(=O)N1CCC[C@H]1C(=O)N[C@@H](CO)C(N)=O)C(C)C)C(=O)O |  |  | Wistar rat, male, plasma | subcutaneous, 0.02 mg/kg |  | dose-normalised Cmax | 1080 ng/mL per mg/kg |

Some of these lines once more:
| Structure (SMILES) | target or system | test | system | setting | scale | measurement | result |
| --- | --- | --- | --- | --- | --- | --- | --- |
| CC(=O)N[C@H](C(=O)N[C@@H](CCCC(=O)OC(C)(C)C)C(=O)N[C@@H](CCC1CCCCC1)C(=O)N[C@@H](CC(=O)O)C(=O)COC(=O)c1c(C)cccc1C)C(C)(C)C |  |  | C57BL/6N mouse, female, whole blood | intraperitoneal, dose not given, 0.5 h |  | blood concentration | 772 µM and 656 µM |
